Assay results gathered from unrelated publications.
Parts stem from different laboratories: compare values within a part only.

Study 1 — technique: aptamer microarray, sandwich; form: DNA with 2'F-ANA; matrix: in vitro; concentration: 200 nM; added: Cy3 exosite-II aptamer, 400 nM; reading: higher = stronger binding; endpoint: mean fluorescence intensity; strand: GGTTGGTGTGGTTGG
Target: Prothrombin, mature alpha-thrombin (F2, Homo sapiens, UniProt P00734)
Setting: whole 15-mer aptamer, many near background
2'F-ANA at 1 4 5 8 9 11 12 13 15: 80.8 a.u.
2'F-ANA at 1 2 4 5 6 10 11 13 14: 62.5 a.u.
2'F-ANA at 1 5 11 14: 43.9 a.u.
2'F-ANA at 1 7 9 11 12 14: 66.7 a.u.
2'F-ANA at 3 4 5 6 7 10: 51.4 a.u.
2'F-ANA at 2 5 6 8 9 11 14 15: 57.7 a.u.
2'F-ANA at 1 2 3 6 7 8 9: 252 a.u.
2'F-ANA at 2 4 5 6 10 11 14 15: 102 a.u.
2'F-ANA at 2 7 8 9 13: 398 a.u.
2'F-ANA at 1 2 3 4 5 6 7 12 14 15: 80.2 a.u.
2'F-ANA at 3 4 7 9 10 11 12 14 15: 201 a.u.
2'F-ANA at 5 7 8 12 14: 56.5 a.u.
2'F-ANA at 2 3 4 6 7 8 9 11 14: 226 a.u.
2'F-ANA at 2 3 5 6 8 11 15: 183 a.u.
2'F-ANA at 2 3 4 5 7 9 11 12 14: 55.8 a.u.
2'F-ANA at 1 2 3 6 7 9 10 11 12 14 15: 58.6 a.u.
2'F-ANA at 1 2 4 11 12 15: 203 a.u.
2'F-ANA at 1 2 6 7 8 9 10 12 13 15: 72.4 a.u.
2'F-ANA at 1 2 5 7 9 11 12: 99 a.u.
2'F-ANA at 3 4 7 10 13: 266 a.u.

Study 2 — technique: RNAcompete; form: RNA; matrix: in vitro; concentration: 20 nM; setting: 7-mer, probes averaged, single round; relative to: mean of 7-mers; reading: higher = stronger binding; endpoint: 7-mer Z-score
Target: PABPC1L2, full length, GST fusion (mouse, UniProt A0ABA7IW68)
Construct (chain): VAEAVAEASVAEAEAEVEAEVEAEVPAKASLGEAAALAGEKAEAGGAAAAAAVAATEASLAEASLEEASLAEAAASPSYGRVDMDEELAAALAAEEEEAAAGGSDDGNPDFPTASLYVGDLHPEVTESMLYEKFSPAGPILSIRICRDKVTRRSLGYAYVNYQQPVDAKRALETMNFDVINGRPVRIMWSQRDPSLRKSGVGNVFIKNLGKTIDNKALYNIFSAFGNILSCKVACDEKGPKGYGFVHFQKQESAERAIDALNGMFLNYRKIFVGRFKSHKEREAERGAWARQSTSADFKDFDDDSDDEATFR
CACCUCG: -0.228
UAGAAGA: 0.262
CUCGACU: -0.293
GGGGGUA: 0.327
CAGCCGG: -0.271
CACUUAC: -0.164
UCAGCCG: -0.474
UUUAUGU: -0.132
AAUACAU: 0.372
GUAUAUG: -0.135
AGAGUAG: -0.15
CUAGCGU: -0.3
CGGAGAU: -0.05
CAGACGA: 0.0895
GCGAUCU: -0.101
UUAGCGC: -0.182
AUAUCCG: -0.171
UCGAUAC: -0.0681
AGGUCCG: -0.162
CUAAGCU: -0.329
AACUGUU: -0.215
GGGGGGU: 0.227
UGAGAGA: 0.0334
AGGUGUC: -0.101
CAUCUCU: -0.287

Study 3 — technique: RNA Bind-n-Seq; form: RNA; matrix: in vitro; concentration: 365 nM; relative to: no-protein control; reading: higher = stronger binding; endpoint: RBNS enrichment (R)
Target: RNA binding protein fox-1 homolog 2, RRM domain, GST-SBP tag (RBFOX2, Homo sapiens, UniProt O43251-10, residues 100-194)
Setting: natural RNA segment, single round, ends assumed
All sequences stand within: GGGAGUUCUACAGUCCGACGAUC … UGGAAUUCUCGGGUGCCAA
Target sequence (chain): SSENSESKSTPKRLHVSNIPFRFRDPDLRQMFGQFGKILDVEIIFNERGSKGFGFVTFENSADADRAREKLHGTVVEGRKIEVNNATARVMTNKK
GCUCCUUGAGGGCAGGGAUUAUAACUGUAACAUUUGUAUCACUGCACUCGCUUUAGUGCCUAGUACAGUGCUGAGCACACAGUAGGUGUUUAAUAAAUGCUUGUUAAAUU: 0.251
ACACAGCAACUGAUCGGCUUUCUGUCCUUCAGGUUUGCCAUUUCUGAACAUUUCCUAUAAAUGGAAUCAGACAUGGUCUUUUGUGUCUGGCUUCUUUCACUCAGUAAUGU: 0.295
GUUGCUAAAUUUUGUAGCACUGUUUACAGUUUUCCUCCAUGUUAUUUAUGAAUUUUAUAUUCCGUGAAUGUAUAUUGUCUUGUAAUGUUGCAUAGUGUUCACUUUUUAUA: 2.38
UAUUCCGUAGCAUAUGAUAGCAGAGCAAAUACCGGAUCUGGAUCUAGCUGAUUUCCAUCCAUUGGCUAAUGGCCAACUUCAUGUCCUUGGGUAACUUGCCACCACCCUGG: 0.614
CCAGGGAUGGGGCCACAGCCAGAACCCCGAGCCCUACUUCCAGGUUCUGGUUAGCUCAGCCCCAGCCCAGCCCAGCUGCUCUGCCCAGAGCUGGGUGAGUGGGGAGACAC: 0.851
UGAAAGUUGGUAUUUAACAUUUAUUCAUUUUUAAAAUAUUUGGAAGGUCUGAGCUUGUGAAAAGAAAGUGGUUGGUCUGAGGUUGGAGGAAGCUGAAUGGAAUCUGACGG: 0.622
GGAAUUUGCUAAGCUUUCUCUUGAAUUUGAGCCAGUGAGAAAAGCAGUCAGAAGAAUGUGAAGGAUGUCUGCGCUGCAGCCUCCAGUGCUGGGUACGCUUCUCUCGUGGG: 2.37
GCUCCCUGCCCUCCGUGUGUGUCUGUUAUCUGGGGGAGAGGAGUGUGGAAGGGUUGGGGGAAGAGCUCCAGCCUGUCUGCUCCCCAGCUCUGUAGUGGCAGACCAGCGUC: 1.25
GAUAUCCUGAACUUAGAGCUCUUCAAUCCUAAGAUUUUCAUGAAAAGCCUCUCACUUGAACCCAAACCAGAGUACUCUUACUGCCUCUUUUCUAAAUGUUCAGGAAAAGC: 0.531
GCACAGCUCCUUCCUGAGCAGCCUCUCACCACUGCCACAAGGCUCCCUAAUGCUGGUCUCUGCUCCACUCCCCGGCUUCCCGUGAGGCAGGAGGCAGAGCCACAGCCAAG: 0.292
UCUCCCCUUUCUCUCCUGUGCUCACCUUACCUUUCCAGAGUGUAAGGGACAACUUUUAAGGAGGCGUGUCCCUGGUAGGGGCAUCCCUGUUCACCAGGUGCCUGUCAUCA: 0.35
GCUGUAUCCUAGUAUCCCAGUGAAACUCUGAGUUGGAAUGAUUCCCUCUGGUCCUGCAUAUGCAGAGGACGGAGCAGGCUCAGCCCCCUGGAAGAUGAGCUCAAGGGGAG: 0.474

Study 4 — technique: RNA Bind-n-Seq; form: RNA; matrix: in vitro; concentration: 200 nM; setting: whole 134-nt RNA, ends assumed; added: 150 mM LiCl; relative to: input library; reading: higher = stronger binding; endpoint: log2 enrichment; all molecules: 7-deaza-guanosine replaces G
Target: Fragile X messenger ribonucleoprotein 1, C-terminal low-complexity region (Fmr1, Mus musculus, UniProt P35922)
All sequences stand within: GGGAGUUCUACAGUCCGACGAUC … UGGAAUUCUCGGGUGUCAAGG
CCUGUGCUACACAUCGUAUGUACCGAAUCGGGGUUUUUUUGGGGUUUUUGGGGAAAGGGGAAAGUAUUAUGUUACGCCGUUCGGAUCUGC: -0.159
UGGGAGGUGGAUUUUGUUUAUUUUUUUAGUUCAUUUCCAGGGGUGGGAAUUUUUUUUUAAUAUGUGUCAUGAAUAAAGUUGUUUUUGAAA: -1.18
UCCUGUGCUACACAUCGUAUGUACCGAAUCGGGUUUUUUGGUUUUUUGGGGUUUUUUGGAAAGUAUUAUGUUACGCCGUUCGGAUCUGCA: -0.304
CUCAAGUCCUGUGCUACACAUCGUAUGUACCGAAUCGGGCCGGGCCGGGCCGGAAAGUAUUAUGUUACGCCGUUCGGAUCUGCACUUCCA: 0.978
CACAGACAACACGCACCCACACAGACACAGAGGGAAGGGGUUGGGAAAAGGACAGGGUGCACAGCAGGGCGGGGUAGGACCCCAGCCCCU: 0.271
CACAGACAACACGCACCCACACAGACACAGAGGGAAGGGGUUGGGAUAGGGACAGGGUGCACAGCAGGGCGGGGUAGGACCCCAGCCCCU: 0.839
UCCUGCCAACCUCUCUUAAUGCUCUGAGAGCCUCUGGUGUUGACAUAGAAGAGGAAACGGAGAAGAACCUGGAAAAGGUACAGACUAUCA: -2.62
UCAAGUCCUGUGCUACACAUCGUAUGUACCGAAUCGGGGUUGGGUUGGGGUUGGAAAGUAUUAUGUUACGCCGUUCGGAUCUGCACUUCC: -0.696
UCUCUUGCUCAAGUUUUCUCUCACAGAUGACAGCCACCUACCACAUAACAUGACCAGCAAACGGACUGUUCCUAGUCCAGAGGGCCUUGC: 2.03
CUCAAGUCCUGUGCUACACAUCGUAUGUACCGAAUCGGAAGGGGAAGGAAGGGGAAAGUAUUAUGUUACGCCGUUCGGAUCUGCACUUCC: 0.0295
UCAAGUCCUGUGCUACACAUCGUAUGUACCGAAUCGGGCCGGGCCGGGGCCGGGAAAGUAUUAUGUUACGCCGUUCGGAUCUGCACUUCC: 0.123

Study 5 — technique: protein binding microarray; form: double-stranded DNA, one strand shown; matrix: in vitro; concentration: not given; relative to: not given; reading: higher = stronger binding; endpoint: E-score
Target: Histone acetyltransferase KAT6A, winged helix 1, GST fusion (KAT6A, Homo sapiens, UniProt Q92794, residues 1-85)
Setting: 8-mer, flanks averaged, mean of 2 arrays, mostly near background
Residues (chain): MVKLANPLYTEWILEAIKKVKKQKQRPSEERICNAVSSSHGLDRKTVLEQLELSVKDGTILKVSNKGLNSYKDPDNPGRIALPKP
CAGGTAGA: -0.0971
CGAATTGC: 0.162
GCGGAGAC: 0.338
TACTCCCA: -0.0908
CGCATTTA: 0.0666
GATTTCGA: 0.0109
AGGCAGTC: 0.0282
GTGGACAC: -0.0216
GTTTGAGA: -0.176
ACCAGTAG: -0.192
GAGAACAA: 0.0248
ATTGCAAT: -0.0109
CGCATCCC: 0.252
CTAGTCTC: -0.178
GCACTAAC: 0.0976
AAGAGCTG: -0.196
ACCCTGGC: -0.074
GTTTTGCA: -0.185

For quick reference, copied from above (study 5):
TACTCCCA: -0.0908
CGCATTTA: 0.0666
GATTTCGA: 0.0109
AGGCAGTC: 0.0282
GTGGACAC: -0.0216
GTTTGAGA: -0.176
ACCAGTAG: -0.192
GAGAACAA: 0.0248
